Measurements gathered from unrelated publications.
Numbered parts are unrelated; each lists some results of a single study.

Block 1 — technique: RNA Bind-n-Seq; form: RNA; matrix: in vitro; tested at: 200 nM; notes: whole 134-nt RNA, ends assumed; added: 150 mM KCl; relative to: input library; direction: higher = stronger binding; endpoint: log2 enrichment
Target: Ras GTPase-activating protein-binding protein 1, full length (G3BP1, Homo sapiens, UniProt Q13283)
Chain of UniProt Q13283 (whole entry, looked up): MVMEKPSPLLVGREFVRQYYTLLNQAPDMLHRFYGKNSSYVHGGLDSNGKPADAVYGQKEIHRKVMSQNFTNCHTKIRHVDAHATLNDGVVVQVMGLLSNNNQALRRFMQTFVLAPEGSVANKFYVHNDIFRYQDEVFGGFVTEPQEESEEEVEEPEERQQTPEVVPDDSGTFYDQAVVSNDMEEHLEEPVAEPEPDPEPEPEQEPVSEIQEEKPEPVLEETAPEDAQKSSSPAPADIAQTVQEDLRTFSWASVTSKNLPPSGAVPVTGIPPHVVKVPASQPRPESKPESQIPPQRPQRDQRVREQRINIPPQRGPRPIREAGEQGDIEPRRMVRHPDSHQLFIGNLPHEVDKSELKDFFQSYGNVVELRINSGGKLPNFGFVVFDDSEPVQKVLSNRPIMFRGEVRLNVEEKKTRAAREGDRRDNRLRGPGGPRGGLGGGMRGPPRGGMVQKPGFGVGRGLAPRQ
Constant ends, left off below: GGGAGUUCUACAGUCCGACGAUC … UGGAAUUCUCGGGUGUCAAGG
Strand = GCAGGCAGUAAAAACAAAUGGAAAUGCUUCGGAUAGUGGCAGGGGUGGGGGUUGCUAAGGAAAGGGUGGGAUGGGAGUGGGUAAAGAGUU; value = 1.25
Strand = AAGUCCUGUGCUACACAUCGUAUGUACCGAAUCGGAAAAGGAAAAGGGGAAAAGGGGAAAGUAUUAUGUUACGCCGUUCGGAUCUGCACU; value = -0.599
Strand = AAGUCCUGUGCUACACAUCGUAUGUACCGAAUCGGGGAGGGGUUUUUGGGGAGGGGAAAGUAUUAUGUUACGCCGUUCGGAUCUGCACUU; value = 0.894
Strand = ACCAUGCAGGUGGGCAUCUUUGGGAAGUGGGGCAAGGGGGGGAUAGGGAGGGGGGUAACACUUUGGGAACAGGAAAUCCCAGGUCGUUUC; value = 0.797
Strand = UCAAGUCCUGUGCUACACAUCGUAUGUACCGAAUCGGGUGGGAAAAAGGGAGGGAAAGUAUUAUGUUACGCCGUUCGGAUCUGCACUUCC; value = 1.07
Strand = AAGUCCUGUGCUACACAUCGUAUGUACCGAAUCGGGUUUUGGGUUUUGGUUUUGGGGAAAGUAUUAUGUUACGCCGUUCGGAUCUGCACU; value = -0.574
Strand = CAAGUCCUGUGCUACACAUCGUAUGUACCGAAUCGGGUGGGAAAAAGGGAAAGGGAAAGUAUUAUGUUACGCCGUUCGGAUCUGCACUUC; value = 0.599
Strand = UCAAGUCCUGUGCUACACAUCGUAUGUACCGAAUCGGGAGGGUGGGUUUUUGGGAAAGUAUUAUGUUACGCCGUUCGGAUCUGCACUUCC; value = 0.643
Strand = GUCCUGUGCUACACAUCGUAUGUACCGAAUCGGUUUUUUGGGUUUUUUGGUUUUUUGGGAAAGUAUUAUGUUACGCCGUUCGGAUCUGCA; value = -1.2
Strand = AGUCCUGUGCUACACAUCGUAUGUACCGAAUCGGGAAAAGGGAAAAGGGGAAAAGGGGAAAGUAUUAUGUUACGCCGUUCGGAUCUGCAC; value = -0.0068
Strand = CACAGACAACACGCACCCACACAGACACAGAGGGAAGAGGUUGGGAUGGGGACAGGGUGCACAGCAGGGCGGGGUAGGACCCCAGCCCCU; value = 1.82
Strand = ACCUUGCAGGUGGGCAUCUUUGGGAAGUGGGGCAAGGGGGGGAUAGGGAGGGGGGUAACACUUUGGGAACAGGUGGUCCCAGGUCGUUUC; value = 1.14
Strand = UGGGAGGUGGAUUUUGUUUAUUUUUUUAGCUCAUUUCCAGGGGUGGGAAUUUUUUUUUAAUAUGUGUCAUGAAUAAAGUUGUUUUUGUAA; value = 0.298
Strand = CCUGUGCUACACAUCGUAUGUACCGAAUCGGUUUUUUUGGGGUUUUUUUGGUUUUUUUGGAAAGUAUUAUGUUACGCCGUUCGGAUCUGC; value = -0.741

Block 2 — technique: universal PBM; form: double-stranded DNA, one strand shown; matrix: in vitro; tested at: 600 nM; direction: higher = stronger binding; endpoint: E-score
Target: Sal-like protein 4, full length isoform A (SALL4, Homo sapiens, UniProt Q9UJQ4, residues 1-1053)
Chain of UniProt Q9UJQ4 (whole entry, looked up): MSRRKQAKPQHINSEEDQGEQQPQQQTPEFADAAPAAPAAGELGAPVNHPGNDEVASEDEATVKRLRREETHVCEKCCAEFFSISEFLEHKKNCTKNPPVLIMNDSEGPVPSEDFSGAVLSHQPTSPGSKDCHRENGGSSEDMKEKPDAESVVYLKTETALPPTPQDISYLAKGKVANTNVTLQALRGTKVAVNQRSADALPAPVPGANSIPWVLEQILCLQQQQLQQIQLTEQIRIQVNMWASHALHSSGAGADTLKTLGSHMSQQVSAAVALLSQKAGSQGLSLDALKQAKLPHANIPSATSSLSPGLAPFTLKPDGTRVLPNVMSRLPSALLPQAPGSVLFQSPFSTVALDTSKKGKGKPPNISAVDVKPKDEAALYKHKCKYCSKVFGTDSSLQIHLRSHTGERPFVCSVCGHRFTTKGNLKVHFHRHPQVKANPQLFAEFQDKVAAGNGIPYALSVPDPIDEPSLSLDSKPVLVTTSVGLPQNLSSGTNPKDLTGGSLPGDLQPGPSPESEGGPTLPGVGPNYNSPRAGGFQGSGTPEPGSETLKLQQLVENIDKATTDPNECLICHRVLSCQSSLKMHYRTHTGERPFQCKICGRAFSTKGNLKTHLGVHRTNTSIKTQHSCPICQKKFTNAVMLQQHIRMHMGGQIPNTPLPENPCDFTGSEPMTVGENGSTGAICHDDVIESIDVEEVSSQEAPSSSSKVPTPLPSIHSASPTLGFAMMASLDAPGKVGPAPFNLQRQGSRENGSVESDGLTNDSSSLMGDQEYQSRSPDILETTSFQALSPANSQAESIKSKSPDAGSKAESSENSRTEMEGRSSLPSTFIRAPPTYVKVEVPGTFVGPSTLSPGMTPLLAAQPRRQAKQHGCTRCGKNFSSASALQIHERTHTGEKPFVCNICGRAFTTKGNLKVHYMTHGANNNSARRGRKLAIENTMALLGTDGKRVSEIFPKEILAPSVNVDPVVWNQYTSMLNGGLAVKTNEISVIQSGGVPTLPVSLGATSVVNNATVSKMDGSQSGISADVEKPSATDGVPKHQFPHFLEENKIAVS
Notes: 8-mer, flanks averaged, mean of replicates
Strand = GCTCTCCC; value = -0.166
Strand = CGTGCCGC; value = -0.328
Strand = ACCGAGCA; value = -0.265
Strand = GATGCATC; value = 0.008
Strand = GACCGCTC; value = -0.179
Strand = GATACTAC; value = 0.0617
Strand = AGAAATAA; value = 0.328
Strand = CGGCTTTA; value = -0.00713
Strand = GACCTCAC; value = -0.23
Strand = CTACCACC; value = -0.263
Strand = CAGGTAGA; value = 0.00789
Strand = ATTTTCGC; value = 0.193
Strand = GACAATGA; value = -0.0192
Strand = CGAGGCGC; value = -0.266
Strand = GGGCGACC; value = -0.386
Strand = ATAGCCAG; value = -0.0783
Strand = CAGACTTA; value = 0.0138
Strand = ATTGACAG; value = 0.0711
Strand = CAAGATTA; value = 0.181
Strand = GATTGTGA; value = 0.182
Strand = CCTCCTCG; value = -0.156

Block 3 — technique: protein binding microarray; form: double-stranded DNA, one strand shown; matrix: in vitro; tested at: not given; relative to: not given; direction: higher = stronger binding; endpoint: E-score
Target: Histone acetyltransferase KAT6A, winged helix 1, GST fusion (KAT6A, Homo sapiens, UniProt Q92794, residues 1-85)
Notes: 8-mer, flanks averaged, mean of 2 arrays, mostly near background
Residues (chain): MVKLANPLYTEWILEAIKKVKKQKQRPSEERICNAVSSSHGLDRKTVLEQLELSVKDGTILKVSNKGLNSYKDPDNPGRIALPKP
Strand = ACAACCAG; value = -0.155
Strand = AAGTTACT; value = -0.129
Strand = GTCTTCCA; value = -0.166
Strand = GGGACTTA; value = 0.0586
Strand = CATGCGCA; value = 0.232
Strand = GGACAAAA; value = 0.021
Strand = CTGAAGTA; value = -0.137
Strand = ATGGTTGG; value = -0.045
Strand = AATCCCTA; value = -0.0203
Strand = CCCCATCG; value = 0.0522
Strand = GAGCCTCC; value = -0.0844
Strand = CTCCGCGC; value = 0.399
Strand = CATTTTAG; value = 0.00617
Strand = ACTTTGAA; value = -0.277
Strand = CCGTCTAG; value = 0.213
Strand = CCACCAAC; value = -0.135
Strand = ATTAAGTC; value = -0.128

Block 4 — technique: RNA Bind-n-Seq; form: RNA; matrix: in vitro; tested at: 365 nM; relative to: no-protein control; direction: higher = stronger binding; endpoint: RBNS enrichment (R)
Target: RNA binding protein fox-1 homolog 2, RRM domain, GST-SBP tag (RBFOX2, Homo sapiens, UniProt O43251-10, residues 100-194)
Notes: natural RNA segment, single round, ends assumed
Constant ends, left off below: GGGAGUUCUACAGUCCGACGAUC … UGGAAUUCUCGGGUGCCAA
Construct (chain): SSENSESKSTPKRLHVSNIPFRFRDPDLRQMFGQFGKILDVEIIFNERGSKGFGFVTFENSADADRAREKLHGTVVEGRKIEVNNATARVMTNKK
Strand = ACAGAUUAAAUUUAAUUAAUUAAUUCAAAACAUGUUAAACGUUACUUUCAUGUACUAUGGAAAAGUACAAGUAGGUUUACAUUACUGAUUUCCAGAAGUAAGUAGUUUCC; value = 0.632
Strand = AAGGCCUGUGUGCUGCUCUCAUGGCCCUGGUGCACCACCUUUCUGUGAAUCUCUCCCACUGGAUCCCUCUUACCUGCAACGUGUCUGUUCUCGUUCUGUAGCAUUUGUAA; value = 1.22
Strand = UGGAUUUGGGCUGCCUUGGAAGUGCCUUUAUCUGCCUCUUCUGUGACAUUUUGAGGUCUGCUUAGCUAUGGCCCCCCUUUCCCAGAUGACCCCUUUCAUGGAAACGGUGU; value = 0.267
Strand = GAUUGAUUGCCUUUGGUCAGUAAUGCGUUCAGGAGUCCACACCAGGCACAGAUGGGGCCUUGAAACGCUUUGUCAUGCUUCUUCAGUACCAUGGAUUUGAAAUGAACUCA; value = 0.801
Strand = UUUCUAAGGAUUUGUUUACUUUUUGUGUUCUGUUUUGCUGUAUUAAAAACUUGUCCUUUUCCUUAAAUCAAAGUAGGACUCGAGUCCUCGUUUUUCACGCUGGCUUUGUU; value = 0.889
Strand = UGUCAGAUGCUUGCAUCCAUGUGGACCACGAUGGGCCUCUAAAAAUUGGUGGGCAGGGGGUUUGCUUAUGAGUUUUCUCUGGAAACCGAUUUUACUCCUGGAUGUAUUGA; value = 0.822
Strand = CUGCAGAUAUGUGUUCCCGUGUAAGCCAGUUUUCCCCUUUUACUCAGACUGAUUUCACCUAGAUUGUCACGGUUUCCUUCAUGUUAACUUUGCGUGACUUUGUUCUUCCU; value = 0.698
Strand = AUCUUCAGACGGUUCCUUUUGAUCAGCCCCUGGAAGAUGGGUCCCUCCUAAUCUAUGUCAUAGAAUUUUGCAUGCUGUAUGAUUGGCUUUGUCUUCUAUCUCCCACCAAA; value = 11.6
Strand = ACACACAUUAUGGCUGUAAAUACCUGGCUCCUGCCAGCAGCUGAGCUGGGUAGCCUCUCUGAGCUGGUUUCCUGCCCCAAAGGCUGGCUUCCACCAUCCAGGUGCACCAC; value = 0.34
Strand = AAUUAAUUACCCUCCGUUUCCCACAUCCCCACUCUCUAGGGGAUUAGCUUGUGCGUGUCAAAAGAAGGAACAGCUCGUUCUGCUUCCUGCUGAGUCGGUGAAUUCUUUGC; value = 0.456
Strand = UUUUUCUGACUUUGCAGCUGAGUCUGGAGAAAAGUGGCAUGCCAGAGCGGGUCGGUGGGAAACAGGGUGAACUUUAGCUUCCAUCAACAGCUCUGGUAGCAAAACCAGUC; value = 0.425
Strand = AAGUCUUUGAGAGGGGCCUGAAGAGCCUCCGGGCUCCUGGGACAUUGAUGUAGAGUUUUUAGUGAAGUGGGCACCUUUCUAGUCCACGGCAUUUGAAGAGAGCGAGGAGA; value = 0.556

Block 5 — technique: protein-binding microarray; form: double-stranded DNA, one strand shown; matrix: in vitro; tested at: 2200 nM top; notes: 60-bp whole probe; added: salmon DNA 0.4 mg/ml; relative to: random background probes; direction: higher = stronger binding; endpoint: fitted relative affinity; constant ends, left off below: GCCTAGCAC … GTCTTGATTCGCTTGACGCTGCTG
Target: Interferon regulatory factor 7, full length, phosphomimetic (IRF7, Homo sapiens, UniProt Q92985, residues 1-503, S471D/S472D/S475D/S476D/S477D/S483D/S484D/S487D)
Chain of UniProt Q92985 (whole entry, unmodified, looked up): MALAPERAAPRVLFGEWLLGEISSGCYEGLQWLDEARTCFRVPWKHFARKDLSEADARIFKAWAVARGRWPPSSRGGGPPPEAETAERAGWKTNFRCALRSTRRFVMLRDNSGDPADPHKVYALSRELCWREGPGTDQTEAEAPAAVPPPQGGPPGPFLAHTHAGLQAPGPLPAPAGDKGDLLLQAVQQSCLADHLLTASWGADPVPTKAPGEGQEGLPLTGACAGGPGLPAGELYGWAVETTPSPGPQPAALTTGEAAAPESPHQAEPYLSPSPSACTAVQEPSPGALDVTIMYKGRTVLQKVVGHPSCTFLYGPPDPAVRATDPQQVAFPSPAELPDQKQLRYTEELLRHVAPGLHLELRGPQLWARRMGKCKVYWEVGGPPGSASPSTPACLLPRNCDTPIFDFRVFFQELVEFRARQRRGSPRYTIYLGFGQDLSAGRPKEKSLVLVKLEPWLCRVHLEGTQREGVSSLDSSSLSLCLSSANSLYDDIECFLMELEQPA
Strand = CTTGTTTCCAGTATATTTAAGTGCTAG; value = 2.72 z-score
Strand = GACGGTTTCGACTTTCGGGAAGTGCTA; value = 7.62 z-score
Strand = TTAGGTTTCCTTGTCCTTTAGTGCTAG; value = 1.52 z-score
Strand = GACGATATCGGGACTGGAGCCGTGCTA; value = -0.371 z-score
Strand = AATTTGAGAACGGAAACCAAGTGCTAG; value = -0.291 z-score
Strand = TTAGGTCTCGGATTCGGTTAGTGCTAG; value = 2.07 z-score
Strand = TTAGGACCGGGGTATCGGTTAGTGCTA; value = -0.843 z-score
Strand = GACGGTTTCGGTTTCGGGAGGTGCTAG; value = 15.2 z-score
Strand = CTCACTCTGTCCCTCTGTGAGTGCTAG; value = 1.8 z-score
Strand = TTAGATATCAGTATCGATTCGTGCTAG; value = 1.24 z-score
Strand = TCATTTTTTCTAATTGAACTGTGCTAG; value = 2.21 z-score
Strand = GACGGACGGGGTTTCGGGACGTGCTAG; value = 0.898 z-score
Strand = TCACCTTTTGCTTTACTACTGTGCTAG; value = 3.57 z-score
Strand = TTTCCTTCCTCTTTTACCCCGTGCTAG; value = 5.47 z-score
Strand = GACGGTTTCGGTTTCGGGAAGTGCTAG; value = 13.8 z-score
Strand = GCCGGACTGGGGTATCGGGACGTGCTA; value = -1.12 z-score
Strand = TTAGGTCTCCTACTGTTTTAGTGCTAG; value = 0.888 z-score
Strand = TCAGTTCCCTATTTAAGACTGTGCTAG; value = 2.41 z-score
Strand = GACGGTCTCCTTAACCTGACGTGCTAG; value = 0.722 z-score
Strand = TGAGGTATCCTTTTCCTTTAGTGCTAG; value = 1.33 z-score

Excerpt of the above (block 2):
Strand = GCTCTCCC; value = -0.166
Strand = CGTGCCGC; value = -0.328
Strand = ACCGAGCA; value = -0.265
Strand = GATGCATC; value = 0.008
Strand = GACCGCTC; value = -0.179
Strand = GATACTAC; value = 0.0617
Strand = AGAAATAA; value = 0.328
Strand = CGGCTTTA; value = -0.00713
Strand = GACCTCAC; value = -0.23
